Results gathered from unrelated publications.
Protocols differ between the studies behind these lines. Values joined by “and” are separate records of one study, mostly repeats; a detail may differ. ± marks the error that the study gave.

| SMILES | test | test system | conditions | scale | measurement | value |
| --- | --- | --- | --- | --- | --- | --- |
| CC(=CCC(O)C(C)=Cc1csc(C)n1)CC=CC(C)C(O)C(C)C(=O)C(C)(C)C(O)CC(=O)O (centres unmarked) |  | human, plasma | intravenous infusion, 6.5 mg/m2 KOS-1584, 3 h infusion, cycle 1 |  | half-life | 27.5 ± 11 h |
| CCCC[C@H](NC(=O)[C@H](Cc1c[nH]c2ccccc12)NC(=O)CNC(=O)[C@H](Cc1ccc(O)cc1)NC(=O)[C@H](C)NC(=O)[C@H](CCC(=O)O)NC(=O)[C@H](Cc1c[nH]cn1)NC(=O)[C@H](Cc1c[nH]cn1)NC(=O)CN1CCN(CC(=O)O)CCN(CC(=O)O)CCN(CC(=O)O)CC1)C(=O)N[C@@H](CC(=O)O)C(=O)N[C@@H](Cc1ccccc1)C(N)=O |  | MF1 nude mouse, male, AR-42J xenograft | intravenous, 0.2 µg, 4 h, 111In-labelled | reference: tumour over kidney | tumour-to-kidney ratio | 0.31 |
| C/C=C/C=C/C/C=C/CCCCCCCc1cccc(O)c1O |  | female Kunming mice, tumour-bearing, tumor | intravenous, 10 mg/kg, 0.5 h |  | tissue concentration | 48200 ± 4010 ng/g |
| CC(=O)[O-].F[P-](F)(F)(F)(F)F.[Co+2].c1ccc(CN2CCCN3CCN(CCCN(Cc4ccccc4)CC3)CC2)cc1 | cyclic voltammetry | acetonitrile |  | reference: SHE | irreversible oxidation potential | 1.23 V |
| CC[C@H](C)[C@H](NC(=O)[C@H](CCCCN)NC(=O)[C@@H](NC(=O)[C@H](CCC(N)=O)NC(=O)[C@H](CCCNC(=N)N)NC(=O)[C@@H](N)CC(=O)O)[C@@H](C)CC)C(=O)N[C@@H](Cc1c[nH]c2ccccc12)C(=O)N[C@@H](Cc1ccccc1)C(=O)N[C@@H](CCC(N)=O)C(=O)N[C@@H](CC(N)=O)C(=O)N[C@@H](CCCNC(=N)N)C(=O)N[C@@H](CCCNC(=N)N)C(=O)N[C@@H](CCSC)C(=O)N[C@@H](CCCCN)C(=O)N[C@@H](Cc1c[nH]c2ccccc12)C(=O)N[C@@H](CCCCN)C(=O)N[C@@H](CCCCN)C(=O)N[C@@H](CC(C)C)C(=O)N[C@@H](CC(=O)O)C(=O)N[C@@H](C)C(=O)N[C@@H](CO)C(=O)N[C@@H](C)C(=O)N[C@@H](CC(C)C)C(=O)O | open field | 5XFAD transgenic mouse | intranasal, 0.1 mg/kg every 2 days, 30 days |  | locomotor activity | no effect |
| CC[C@H](C)[C@@H]1NC(=O)[C@H](C(C)C)NC(=O)[C@H](C(C)C)NC(=O)[C@H](CC(C)C)NC(=O)C[C@@H](C(=O)N[C@@H](Cc2c[nH]c3ccccc23)C(=O)N[C@@H](CC(N)=O)C(=O)N[C@@H](C)C(=O)N2CCC[C@H]2C(=O)NCC(=O)N[C@@H](Cc2c[nH]c3ccccc23)C(=O)N[C@@H](Cc2ccc(O)cc2)C(=O)O)NC(=O)[C@H](C)NC(=O)[C@H](CCC(N)=O)NC(=O)[C@H](C(C)C)NC1=O | HPLC |  | 3 h, 95 °C |  | thermal stability | stable |
| CC(C)[C@H](NC(=O)CNC(=O)[C@H](CCC(N)=O)NC(=O)[C@H](C)N)C(=O)O | any adverse event | human | 10 mg/kg, 3 days, thrice daily dosing |  | subjects with adverse events | 50% |
| CC(C)C[C@H](NC(=O)[C@H](Cc1ccccc1)NC(=O)CNC(=O)C/C=C(\F)[C@@H](N)Cc1ccc(O)cc1)C(=O)O |  | BALB/c mice, plasma | oral, 400 mg/kg |  | duration of detectable level | ≤ 30 min |
| CC[C@H](C)[C@H](NC(=O)[C@H](CCCCN)NC(=O)CNC(=O)[C@H](CC(C)C)NC(=O)[C@@H](NC(=O)[C@H](C)NC(=O)[C@H](CCCCN)NC(=O)CNC(=O)[C@H](C)NC(=O)CNC(=O)[C@H](CCCCN)NC(=O)[C@H](CCSC)NC(=O)[C@H](CCCCN)NC(=O)[C@@H](NC(=O)[C@H](Cc1c[nH]c2ccccc12)NC(=O)[C@H](CC(C)C)NC(=O)[C@H](CCC(=O)O)NC(=O)[C@H](CCCCN)NC(=O)[C@H](CC(C)C)NC(=O)[C@@H](N)CC(C)C)[C@@H](C)O)C(C)C)C(=O)N[C@@H](CCCCN)C(=O)NCC(=O)N[C@@H](CC(C)C)C(=O)N[C@@H](CC(C)C)C(=O)O | acrylamide quenching | DOPC:DOPG 3:1 vesicles | 2 µM, 250 µM total lipid, with: acrylamide |  | Stern-Volmer constant | 2.08 ± 0.27 M⁻¹ |
| CCN(Cc1ccccc1)C(=O)CCc1nc(CN2CCN(C(=O)Cc3ccc(OC)c(OC)c3)CC2)no1 |  | rat | intravenous, 1 mg/kg, 15 min | reference: dorsal root ganglion over brain | tissue concentration ratio | ~31.6 |
| O=P1(NCCCl)NCCCO1 (centres unmarked) |  | rat, plasma | intravenous, 10 mg/kg CP, with: ketoconazole 0 mg/kg |  | AUC(0-t) | 1130 ± 150 ng·h/mL |
| CSCC[C@H](NC(=O)CNC(=O)[C@H](CC(=O)O)NC(=O)[C@@H](NC(=O)[C@@H](NC(=O)[C@@H](NC(=O)CNC(=O)[C@H](CCC(N)=O)NC(=O)[C@H](CCSC)NC(=O)[C@H](CC(=O)O)NC(=O)[C@H](C)NC(=O)[C@H](C)NC(=O)[C@@H](NC(=O)[C@H](CO)NC(=O)[C@@H](N)CC(C)C)[C@@H](C)O)C(C)C)C(C)C)[C@@H](C)O)C(=O)N[C@@H](C)C(=O)N[C@@H](CO)C(=O)NCC(=O)N[C@@H](CC(C)C)C(=O)N[C@@H](CC(=O)O)C(=O)N[C@@H](CCCCN)C(=O)N[C@@H](CC(=O)O)C(=O)N[C@@H](Cc1ccc(O)cc1)C(=O)N[C@@H](CC(C)C)C(=O)N[C@@H](CCCCN)C(=O)N1CCC[C@H]1C(=O)N[C@@H](CC(=O)O)C(=O)N[C@@H](CC(=O)O)C(=O)O |  | human, serum | intravenous, 3.33 mg/kg, patients, infusion |  | Vd | 0.468 L/kg |
| CCCCCCCC(=O)OC[C@H](NC(=O)[C@H](CO)NC(=O)CN)C(=O)N[C@@H](Cc1ccccc1)C(=O)N[C@@H](CC(C)C)C(=O)N[C@@H](CO)C(=O)N1CCC[C@H]1C(=O)N[C@@H](CCC(=O)O)C(=O)N[C@@H](Cc1cnc[nH]1)C(=O)N[C@@H](CCC(N)=O)C(=O)N[C@@H](CCCNC(=N)N)C(=O)N[C@H](C(=O)N[C@@H](CCC(N)=O)C(=O)N[C@@H](CCC(N)=O)C(=O)N[C@@H](CCCNC(=N)N)C(=O)N[C@@H](CCCCN)C(=O)N[C@@H](CCC(=O)O)C(=O)N[C@@H](CO)C(=O)N[C@@H](CCCCN)C(=O)N[C@@H](CCCCN)C(=O)N1CCC[C@H]1C(=O)N1CCC[C@H]1C(=O)N[C@@H](C)C(=O)N[C@@H](CCCCN)C(=O)N[C@@H](CC(C)C)C(=O)N[C@@H](CCC(N)=O)C(=O)N1CCC[C@H]1C(=O)N[C@@H](CCCNC(=N)N)C(=O)O)C(C)C | ELISA | healthy humans, both sexes, plasma | intravenous infusion, 1 µg/kg/h, 210 min |  | AUC(0-last) | 4.46 ± 3.01 ng·h/mL |
| CCCCC[C@@H]1NC(=O)[C@@H](C)N(C)C(=O)[C@H](CCCCC)NC(=O)[C@@H](C)N(C)C(=O)[C@H](CCCCC)NC(=O)[C@@H](C)N(C)C(=O)[C@H](CCCCC)NC(=O)[C@@H](C)N(C)C1=O |  | Caco-2 | 10 µM |  | Papp A→B | 2.89 ×10⁻⁶ cm/s |
| COC(=O)C[C@](O)(CCCC(C)(C)OC(C)=O)C(=O)O[C@@H]1C(OC)=C[C@]23CCCN2CCc2cc4c(cc2[C@H]13)OCO4 |  | CD1 mouse, heart | subcutaneous, 1 mg/kg, 2 h |  | tissue concentration | 98.6 ng/mL |
| CSCC[C@@H]1NC(=O)[C@@H]2CSSC[C@H](NC(=O)[C@H](CO)NC(=O)[C@H](C)N)C(=O)N[C@@H](CCCNC(=N)N)C(=O)N[C@@H]([C@@H](C)O)C(=O)N3CCC[C@H]3C(=O)N[C@@H](CCCCN)C(=O)N[C@@H](CC(=O)O)C(=O)N[C@H]3CSSC[C@H](NC(=O)[C@H](CCCCN)NC(=O)[C@H](CCCNC(=N)N)NC(=O)[C@H](CC(N)=O)NC1=O)C(=O)N[C@@H](CCCCN)C(=O)N[C@H]1CSSC[C@H](NC(=O)[C@@H]4CCCN4C(=O)[C@H](CC(=O)O)NC(=O)[C@H](C)NC3=O)C(=O)N[C@@H](C)C(=O)N[C@@H](CCCCN)C(=O)N[C@@H](CCC(=O)O)C(=O)N[C@@H]([C@@H](C)O)C(=O)NCC(=O)N[C@@H](CSSC[C@@H](C(N)=O)NC(=O)[C@H](CCCNC(=N)N)NC(=O)[C@H](CC(N)=O)NC1=O)C(=O)N1CCC[C@H]1C(=O)N[C@@H](Cc1ccc(O)cc1)C(=O)NCC(=O)N[C@@H](CCCCN)C(=O)N2 |  | DA rat, pristane-induced arthritis, serum | subcutaneous, 0.1 mg/kg every other day, end of 21-day trial |  | direct bilirubin | 0.002 mg/dL |
| CC(C)[C@@H]1NC(=O)[C@H](Cc2ccccc2)NC(=O)[C@H](Cc2ccc(O)cc2)NC(=O)CCSSC[C@@H](C(=O)N2CCC[C@H]2C(=O)N[C@H](CCCNC(=N)N)C(=O)NCC(N)=O)NC(=O)[C@H](CCC(N)=O)NC1=O |  | Wistar rat, blood | intravenous, 1 µg/kg single dose, 72 h |  | total protein | 6.9 ± 0.5 g/dL |
| C[S]1CC[S]2CC[P](CO)(CO)[99Tc+]12.[C-]#[O+].[C-]#[O+].[C-]#[O+] |  | CF-1 mouse | intravenous, 1 h |  | uptake in blood | 0.6 %ID and 0.59 %ID |
| CCCCCCCCCCCCC(=O)O.O=C1CCCC2C3CCCN4CCCC(CN12)C34 (centres unmarked) | electrical conductivity | water | 313.15 K, critical micelle concentration |  | standard enthalpy of micellization | -0.657 kcal/mol |
| O=C(CN1CCN(c2cc3c(cc2F)c(=O)c(C(=O)O)cn3C2CC2)CC1)Nc1ccc(Cl)cc1 |  | mouse, plasma | intravenous, 1.25 mg/kg |  | C0 | 11400 ng/mL |
| N=C(N)NCCC[C@@H]1NC(=O)[C@H](CCCCNC(=O)CCOCCOCCOCCOCCNC(=O)CN2CCN(CC(=O)O)CCN(CC(=O)O)CCN(CC(=O)O)CC2)NC(=O)[C@@H](Cc2ccccc2)NC(=O)[C@H](CC(=O)O)NC(=O)CNC1=O [indium-111 labelled] |  | female athymic nude mice, heart | intravenous, 3 µCi, 1 h, U-87 MG glioma xenograft |  | tissue uptake | 0.4 ± 0.03 %ID/g |
| CC[C@@H]1C[C@]1(NC(=O)[C@@H]1C[C@@]2(CN1C(=O)[C@@H](NC(=O)[C@@H](NC(=O)[C@@H]1CCCCN1C(C)C)C1CCCCC1)C(C)(C)C)C(C)(C)C21CCC1)C(=O)NS(=O)(=O)N1CCCC1 | refers to: Nausea | human | oral, 50 mg, with: ritonavir 100 mg |  | subjects with adverse event | 0% |
| CN[C@](C)(C[18F])C(=O)O |  | mouse, blood | 15 min, tumour-bearing |  | tracer uptake | 2.6 %ID/g |

Excerpt of the above:
| SMILES | test | test system | conditions | scale | measurement | value |
| --- | --- | --- | --- | --- | --- | --- |
| CCCCCCCCCCCCC(=O)O.O=C1CCCC2C3CCCN4CCCC(CN12)C34 (centres unmarked) | electrical conductivity | water | 313.15 K, critical micelle concentration |  | standard enthalpy of micellization | -0.657 kcal/mol |
| O=C(CN1CCN(c2cc3c(cc2F)c(=O)c(C(=O)O)cn3C2CC2)CC1)Nc1ccc(Cl)cc1 |  | mouse, plasma | intravenous, 1.25 mg/kg |  | C0 | 11400 ng/mL |
| N=C(N)NCCC[C@@H]1NC(=O)[C@H](CCCCNC(=O)CCOCCOCCOCCOCCNC(=O)CN2CCN(CC(=O)O)CCN(CC(=O)O)CCN(CC(=O)O)CC2)NC(=O)[C@@H](Cc2ccccc2)NC(=O)[C@H](CC(=O)O)NC(=O)CNC1=O [indium-111 labelled] |  | female athymic nude mice, heart | intravenous, 3 µCi, 1 h, U-87 MG glioma xenograft |  | tissue uptake | 0.4 ± 0.03 %ID/g |
| CC[C@@H]1C[C@]1(NC(=O)[C@@H]1C[C@@]2(CN1C(=O)[C@@H](NC(=O)[C@@H](NC(=O)[C@@H]1CCCCN1C(C)C)C1CCCCC1)C(C)(C)C)C(C)(C)C21CCC1)C(=O)NS(=O)(=O)N1CCCC1 | refers to: Nausea | human | oral, 50 mg, with: ritonavir 100 mg |  | subjects with adverse event | 0% |
